Results collected from several papers.
Protocols differ between the studies behind these lines. ± gives the spread as reported.

Compound | assay | system | setting | Tmax
CC[C@@H]1C[C@]1(NC(=O)[C@@H]1C[C@@]2(CN1C(=O)[C@@H](NC(=O)[C@@H](NC(=O)[C@@H]1CCCCN1C(C)C)C1CCCCC1)C(C)(C)C)C(C)(C)C21CCC1)C(=O)NS(=O)(=O)N1CCCC1 |  | human, fasted, plasma | oral, 100 mg, single dose, median | ~1 h
CCc1c2c(nc3ccc(OC4OC(C(=O)O)C(O)C(O)C4O)cc13)-c1cc3c(c(=O)n1C2)COC(=O)C3(O)CC (centres unmarked) |  | human patients, plasma | intravenous, 133 mg/m^2 of parent drug | 7.02 h
CSCC[C@H](NC(=O)[C@H](CO)NC(=O)[C@H](Cc1ccc(O)cc1)NC(=O)[C@@H](N)CO)C(=O)N[C@@H](CCC(=O)O)C(=O)N[C@@H](Cc1c[nH]cn1)C(=O)N[C@@H](Cc1ccccc1)C(=O)N[C@@H](CCCNC(=N)N)C(=O)N[C@@H](Cc1c[nH]c2ccccc12)C(=O)NCC(=O)N[C@@H](CCCCN)C(=O)N1CCC[C@H]1C(=O)N[C@H](C(=O)NCC(=O)N[C@@H](CCCCN)C(=O)N[C@@H](CCCCN)C(=O)N[C@@H](CCCNC(=N)N)C(=O)N[C@@H](CCCNC(=N)N)C(=O)N1CCC[C@H]1C(=O)N[C@H](C(=O)N[C@@H](CCCCN)C(=O)N[C@H](C(=O)N[C@@H](Cc1ccc(O)cc1)C(=O)N1CCC[C@H]1C(=O)N[C@@H](CC(=O)O)C(=O)NCC(=O)N[C@@H](C)C(=O)N[C@@H](CCC(=O)O)C(=O)N[C@@H](CC(=O)O)C(=O)N[C@@H](CCC(=O)O)C(=O)N[C@@H](CC(C)C)C(=O)N[C@@H](C)C(=O)N[C@@H](CCC(=O)O)C(=O)N[C@@H](C)C(=O)N[C@@H](Cc1ccccc1)C(=O)N1CCC[C@H]1C(=O)N[C@@H](CC(C)C)C(=O)N[C@@H](CCC(=O)O)C(=O)N[C@@H](Cc1ccccc1)C(=O)O)C(C)C)C(C)C)C(C)C |  | human, plasma | subcutaneous, RCI 80 IU, day 1, after first dose | 1 h
Cc1ccc2c(n1)c(-c1cccc(S(C)(=O)=O)c1)c(C)n2C/C(F)=C/CN |  | male Wistar rat, plasma | oral, 10 mg/kg, single dose | ~3 h
CCCCCCCC(=O)OC[C@H](NC(=O)[C@H](CO)NC(=O)CN)C(=O)N[C@@H](Cc1ccccc1)C(=O)N[C@@H](CC(C)C)C(=O)N[C@@H](CO)C(=O)N1CCC[C@H]1C(=O)N[C@@H](CCC(=O)O)C(=O)N[C@@H](Cc1cnc[nH]1)C(=O)N[C@@H](CCC(N)=O)C(=O)N[C@@H](CCCNC(=N)N)C(=O)N[C@H](C(=O)N[C@@H](CCC(N)=O)C(=O)N[C@@H](CCC(N)=O)C(=O)N[C@@H](CCCNC(=N)N)C(=O)N[C@@H](CCCCN)C(=O)N[C@@H](CCC(=O)O)C(=O)N[C@@H](CO)C(=O)N[C@@H](CCCCN)C(=O)N[C@@H](CCCCN)C(=O)N1CCC[C@H]1C(=O)N1CCC[C@H]1C(=O)N[C@@H](C)C(=O)N[C@@H](CCCCN)C(=O)N[C@@H](CC(C)C)C(=O)N[C@@H](CCC(N)=O)C(=O)N1CCC[C@H]1C(=O)N[C@@H](CCCNC(=N)N)C(=O)O)C(C)C | ELISA | healthy humans, both sexes, plasma | intravenous bolus then infusion, 0.28 µg/kg bolus then 1 µg/kg/h, 210 min | 2.47 ± 1.48 h
CCCCCCCC/C=C\CCCCCCCCOP(O)(O)=S.N |  | mouse, female, irradiated | sc, dose not given, 15.6 Gy partial-body, dosed 24 h after | 1 h
Cc1cc(Nc2nc(C[C@@]3(C(=O)O)CCN(Cc4cccc(Cl)c4F)[C@H](C)C3)cc(C)c2F)n[nH]1 |  | Sprague-Dawley rat, plasma | oral, 0.5 mg/kg, single dose | 1.17 h
CC(=CCC(O)C(C)=Cc1csc(C)n1)CC=CC(C)C(O)C(C)C(=O)C(C)(C)C(O)CC(=O)O (centres unmarked) |  | human, plasma | intravenous infusion, 15.0 mg/m2 KOS-1584, 3 h infusion, cycle 1 | 3.3 ± 0.47 h

A few entries again:
Compound | assay | system | setting | Tmax
CSCC[C@H](NC(=O)[C@H](CO)NC(=O)[C@H](Cc1ccc(O)cc1)NC(=O)[C@@H](N)CO)C(=O)N[C@@H](CCC(=O)O)C(=O)N[C@@H](Cc1c[nH]cn1)C(=O)N[C@@H](Cc1ccccc1)C(=O)N[C@@H](CCCNC(=N)N)C(=O)N[C@@H](Cc1c[nH]c2ccccc12)C(=O)NCC(=O)N[C@@H](CCCCN)C(=O)N1CCC[C@H]1C(=O)N[C@H](C(=O)NCC(=O)N[C@@H](CCCCN)C(=O)N[C@@H](CCCCN)C(=O)N[C@@H](CCCNC(=N)N)C(=O)N[C@@H](CCCNC(=N)N)C(=O)N1CCC[C@H]1C(=O)N[C@H](C(=O)N[C@@H](CCCCN)C(=O)N[C@H](C(=O)N[C@@H](Cc1ccc(O)cc1)C(=O)N1CCC[C@H]1C(=O)N[C@@H](CC(=O)O)C(=O)NCC(=O)N[C@@H](C)C(=O)N[C@@H](CCC(=O)O)C(=O)N[C@@H](CC(=O)O)C(=O)N[C@@H](CCC(=O)O)C(=O)N[C@@H](CC(C)C)C(=O)N[C@@H](C)C(=O)N[C@@H](CCC(=O)O)C(=O)N[C@@H](C)C(=O)N[C@@H](Cc1ccccc1)C(=O)N1CCC[C@H]1C(=O)N[C@@H](CC(C)C)C(=O)N[C@@H](CCC(=O)O)C(=O)N[C@@H](Cc1ccccc1)C(=O)O)C(C)C)C(C)C)C(C)C |  | human, plasma | subcutaneous, RCI 80 IU, day 1, after first dose | 1 h
